{"data": "Assay results gathered from unrelated publications", "note": "Numbered parts are unrelated; each lists some results of a single study. Changes are numbered by the printed parent chain."}
{"data": "Block 1", "target": "CEP164, C-terminal peptide (human)", "method": "DHFR complementation, deep sequencing", "medium": "yeast", "setting": "single substitutions, model-inferred values", "baseline": "wild type", "direction": "higher = weaker binding", "starting sequence": "PDZK1, PDZ domain 2 (human); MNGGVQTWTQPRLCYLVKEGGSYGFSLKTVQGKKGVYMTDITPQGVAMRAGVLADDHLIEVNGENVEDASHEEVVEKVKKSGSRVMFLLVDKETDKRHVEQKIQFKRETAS; partner HNRVKVYRF"}
{"Substitution": "E100F", "binding free energy change [kcal/mol]": -0.126}
{"Substitution": "S70I", "binding free energy change [kcal/mol]": 0.149}
{"Substitution": "V99Y", "binding free energy change [kcal/mol]": -0.115}
{"Substitution": "K80N", "binding free energy change [kcal/mol]": 0.49}
{"Substitution": "V85S", "binding free energy change [kcal/mol]": 1.67}
{"Substitution": "Y37H", "binding free energy change [kcal/mol]": 0.648}
{"Substitution": "Q44G", "binding free energy change [kcal/mol]": -0.283}
{"Substitution": "P43M", "binding free energy change [kcal/mol]": 0.539}
{"Substitution": "W8M", "binding free energy change [kcal/mol]": -0.0997}
{"Substitution": "V66W", "binding free energy change [kcal/mol]": 0.651}
{"Substitution": "Q104G", "binding free energy change [kcal/mol]": -0.141}
{"Substitution": "R107E", "binding free energy change [kcal/mol]": -0.192}
{"Substitution": "H57D", "binding free energy change [kcal/mol]": 0.931}
{"Substitution": "T7Y", "binding free energy change [kcal/mol]": -0.0455}
{"Substitution": "E73N", "binding free energy change [kcal/mol]": 0.0904}
{"Substitution": "D91P", "binding free energy change [kcal/mol]": -0.285}
{"Substitution": "V99E", "binding free energy change [kcal/mol]": -0.22}
{"Substitution": "K18G", "binding free energy change [kcal/mol]": 0.836}
{"Substitution": "Q44R", "binding free energy change [kcal/mol]": 0.0562}
{"Substitution": "R49W", "binding free energy change [kcal/mol]": -0.263}
{"data": "Block 2", "target": "CCNE2, cyclin fold, Cln2 fusion (human)", "method": "yeast growth competition, sequencing", "medium": "yeast", "setting": "strong parent motif", "baseline": "not given", "direction": "higher = stronger binding", "starting sequence": "PKN2 docking peptide (human); VSAVRKLDFSDTM; partner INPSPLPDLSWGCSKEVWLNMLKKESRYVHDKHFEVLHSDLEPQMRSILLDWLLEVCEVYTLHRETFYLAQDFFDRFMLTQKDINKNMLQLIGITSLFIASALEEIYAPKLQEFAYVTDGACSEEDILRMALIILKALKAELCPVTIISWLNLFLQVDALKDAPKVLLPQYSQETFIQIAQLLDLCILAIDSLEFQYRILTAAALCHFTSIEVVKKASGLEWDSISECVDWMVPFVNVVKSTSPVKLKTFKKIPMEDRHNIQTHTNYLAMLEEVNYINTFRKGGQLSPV"}
{"Substitution": "D8E", "normalised enrichment score": 3.84}
{"Substitution": "K6C", "normalised enrichment score": 2.77}
{"Substitution": "S10I", "normalised enrichment score": 2.72}
{"Substitution": "S2P", "normalised enrichment score": 3.76}
{"Substitution": "T12K", "normalised enrichment score": 5.12}
{"Substitution": "S10V", "normalised enrichment score": 3.35}
{"Substitution": "S2Q", "normalised enrichment score": 3.92}
{"Substitution": "D11F", "normalised enrichment score": 4.38}
{"Substitution": "T12V", "normalised enrichment score": 4.36}
{"Substitution": "D11I", "normalised enrichment score": 5.12}
{"Substitution": "T12N", "normalised enrichment score": 4.76}
{"Substitution": "L7H", "normalised enrichment score": 0.234}
{"Substitution": "T12P", "normalised enrichment score": 4.83}
{"Substitution": "A3D", "normalised enrichment score": -0.0444}
{"data": "Block 3", "target": "ABI1, truncated, D143A, DHFR fusion (Arabidopsis thaliana)", "method": "DHFR PCA, deep sequencing", "medium": "yeast", "setting": "methotrexate growth selection, single substitutions", "with": "(+)-ABA 710 µM", "baseline": "wild-type fitted maximum", "direction": "higher = stronger binding", "starting sequence": "PYL1, truncated, DHFR fusion (Arabidopsis thaliana); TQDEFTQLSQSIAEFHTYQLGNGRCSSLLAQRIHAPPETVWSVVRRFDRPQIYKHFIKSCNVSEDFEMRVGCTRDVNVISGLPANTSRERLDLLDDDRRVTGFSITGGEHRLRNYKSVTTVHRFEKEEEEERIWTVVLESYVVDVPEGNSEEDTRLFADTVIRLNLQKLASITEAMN; partner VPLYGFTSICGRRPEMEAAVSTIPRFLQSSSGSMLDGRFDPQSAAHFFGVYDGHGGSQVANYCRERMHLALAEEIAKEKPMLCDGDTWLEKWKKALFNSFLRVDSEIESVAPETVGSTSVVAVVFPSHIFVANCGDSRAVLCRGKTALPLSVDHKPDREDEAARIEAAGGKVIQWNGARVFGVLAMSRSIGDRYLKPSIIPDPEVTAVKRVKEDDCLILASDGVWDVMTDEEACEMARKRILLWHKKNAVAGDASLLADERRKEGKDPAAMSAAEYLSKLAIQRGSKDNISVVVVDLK"}
{"Substitution": "F5L", "relative binding score": "111%"}
{"Substitution": "K58S", "relative binding score": "99.4%"}
{"Substitution": "F103C", "relative binding score": "15.1%"}
{"Substitution": "Q2S", "relative binding score": "106%"}
{"Substitution": "N114E", "relative binding score": "84.4%"}
{"Substitution": "Q10V", "relative binding score": "105%"}
{"Substitution": "T101G", "relative binding score": "49.3%"}
{"Substitution": "R98M", "relative binding score": "103%"}
{"Substitution": "N165S", "relative binding score": "59.3%"}
{"Substitution": "F56L", "relative binding score": "102%"}
{"Substitution": "T101K", "relative binding score": "38.1%"}
{"Substitution": "T1Q", "relative binding score": "104%"}
{"Substitution": "L93Y", "relative binding score": "113%"}
{"Substitution": "S117N", "relative binding score": "52.2%"}
{"Substitution": "V44R", "relative binding score": "67%"}
{"Substitution": "Q19E", "relative binding score": "105%"}
{"Substitution": "A13N", "relative binding score": "90.5%"}
{"data": "Block 4", "target": "Hepatocyte nuclear factor 3-alpha (Foxa1, Mus musculus, UniProt P35582, residues 1-468, full length assumed)", "method": "EMSA with sequencing", "form": "double-stranded DNA, one strand shown", "medium": "in vitro", "concentration": "10 and 20 nM", "setting": "whole designed probe, mean of two concentrations, ends assumed", "baseline": "negative control set to 0", "direction": "higher = stronger binding", "shared flanks, not repeated": "GTGAGCGGTGCCCATTGATGGGGAAC … TTTCACTGGGATCGTGGGGAC", "Target sequence (chain)": "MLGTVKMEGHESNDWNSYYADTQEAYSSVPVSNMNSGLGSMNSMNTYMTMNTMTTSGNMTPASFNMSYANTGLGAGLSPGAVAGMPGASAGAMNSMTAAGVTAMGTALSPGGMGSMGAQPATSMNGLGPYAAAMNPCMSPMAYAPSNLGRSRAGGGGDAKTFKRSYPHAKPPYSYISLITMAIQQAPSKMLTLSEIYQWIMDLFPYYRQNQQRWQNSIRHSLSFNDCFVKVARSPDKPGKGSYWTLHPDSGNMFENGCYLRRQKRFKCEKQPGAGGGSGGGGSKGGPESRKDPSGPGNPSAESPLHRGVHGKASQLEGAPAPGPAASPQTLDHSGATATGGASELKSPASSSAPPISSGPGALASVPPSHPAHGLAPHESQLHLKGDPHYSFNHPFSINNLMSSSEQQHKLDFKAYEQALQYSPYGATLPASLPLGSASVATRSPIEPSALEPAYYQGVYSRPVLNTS"}
{"Sequence": "TGCTTTGTTTTTGAGAGAAGGTTTCATCTGAAACAGAAACAGACACACATACCACGAGCCCGATTACTATAGAACCGAAGAGACCTTTCCAGCTGTTTACACTTCGGATGTAAAATGGCAATTTGACATAGACTAACAGTGTGATGTGAGCATCTGCGTAAAAAGGCGACATATGGAGCATGCCCAGTGTGGG", "normalised bound fraction": "0.163 ratio"}
{"Sequence": "TGAAAGACTAGAGGACATATAATAGAGGCACATGTAAAAATTATAGATAATAGTGTCAACTTTCATAACTTAAAGTGAAAAATTTCTTTTACCATGTTTACTTTGCAGGCAGAAAAATAACATTAGTAAGGAATAATTGCTATTTCTTTTTGGTTATTTTTCTCTCATTCATATTAACTTTTCCTAAATTTCA", "normalised bound fraction": "0.375 ratio"}
{"Sequence": "AATAGAATAAAAAAAATAGATTACACCATTTTAACAAATAGAGTCTATCACATAGTGTGAATGTGTGCCTGAATGTATGCACTGAGTCATAATATAATCTTGCGTTTTCTGTGGGTTGTGGTCACTGCATGAAGGGAATTATCTGAGATCACTTGGCTATAGGGAAGTTAGACTTCATGGTTATTGTCTACTA", "normalised bound fraction": "0.0632 ratio"}
{"Sequence": "TGTATCCATCTGGGCAGTATCTTCTCTGGGCCTGGCCTGTCATAGGTGCTTCAGGTTTCCCCATTTGAACCAGATACCAGTCGGGTTACCGGATGTTTGCTTAAGGCTTCCTGCTAATGAGTCATAATTCCTGTGCTGCTTCCAGCTAGGACTGATCGAATCAGTCTGGATTTTCCTTGGGGTGATCCGCAGG", "normalised bound fraction": "0.297 ratio"}
{"Sequence": "CTTCTCCAGTTGAGTTTTCTTCATTCTGCAAATATGTGGCATTGGAAGCTGGAAAGAGGCTACTTGGCTGAAACCTTTCTGATGGAGTCTATGTAAACATACAGAAGAAAAAATGTGTAACTAAGGTTCATATCCCTTAAAAAGAATATGTAGACAATTCAAGTGGCTGTATTAAAAGTTTCACATTCTACCA", "normalised bound fraction": "0.442 ratio"}
{"Sequence": "AGGCCCGCCCCCTAGCCGCCGGGGTTGCTATGCGTTGCCGTGAAACGCCTGTCAATAAACCCTGTTTGGACAGTGGAGCAAGAGCACATGGGTTGTTTGCTTAGTGGTTAGAGGTTCAAAAGTCGACATTGTCCCGCTGCAAGCGATTACAAGTTCTTCCCCTTCCCGGGGCTCGGTCCCCTTGCACGCGGGT", "normalised bound fraction": "0.44 ratio"}
{"Sequence": "ATCTTCCCCCTCTTCCTTGCCCCACCAGCTCACCTACGGGGGTTATTTGCACAAAGGAAAATAAATAAAGCCGGCATTCGTTAACGCAGTTCACGCGCATACTGCTGTTTGCTCTGCATCTAACATGGTCCTTACGCGACGCCAGGCTCCGGGAGAGCAAAGCACCGTGTCAGGCGCATGATCCGGGGTGGCC", "normalised bound fraction": "0.4 ratio"}
{"Sequence": "AAATGGAAAGTACTTTGAAAAGTTTGAAGCTGTATACAATAGCCATCTGTTGTCCTCAAAGTGAGTGGTCCTTGGGGGCAGGCTTGCTACAAAGTAAACAACCTGGGGCAAAAGGTTTTAGTTGTTTAGACAAGAACACACTGCCTTTCATCAGTGTGGGAAAGAACTGGATCGGGAATTAGACCACGTGGGC", "normalised bound fraction": "0.464 ratio"}
{"note": "For quick reference, copied from above (block 2):"}
{"Substitution": "T12P", "normalised enrichment score": 4.83}
{"Substitution": "A3D", "normalised enrichment score": -0.0444}
{"Substitution": "S2P", "normalised enrichment score": 3.76}
{"Substitution": "S2Q", "normalised enrichment score": 3.92}
{"Substitution": "T12V", "normalised enrichment score": 4.36}
